Assay results gathered from unrelated publications.
Numbered parts are unrelated; each lists some results of a single study. Substitutions count along the parent as printed.

Study 1
Target: RNA binding protein fox-1 homolog 2, RRM domain, GST-SBP tag (RBFOX2, Homo sapiens, UniProt O43251-10, residues 100-194)
Technique: RNA Bind-n-Seq
Form: RNA
Medium: in vitro
Tested at: 365 nM
Setting: natural RNA segment, single round, ends assumed
Reference: no-protein control
Direction: higher = stronger binding
Shared flanks, not repeated: GGGAGUUCUACAGUCCGACGAUC … UGGAAUUCUCGGGUGCCAA
Target sequence (chain): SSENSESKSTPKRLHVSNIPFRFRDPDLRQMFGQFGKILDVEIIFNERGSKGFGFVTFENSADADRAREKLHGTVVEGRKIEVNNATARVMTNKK
Strand	RBNS enrichment (R)
CAAUGUUAAGUGUCUGCUUUAUGGGCAUAUAUAAAAGUAGACACAUUUCAUUUGUUAAUUUAGUUGUGUGUGUGUGUUAAAAGGAGCUAAUGCUUAUUCUGUUAAUGUAA	0.602
CUACAGAGUGAGUUCCAGGACAGCCGGGGCUAUACAGAGAAACCCUGGGGAAACCCUUGGGGAAAAAAAAACAGUUCCUAAGUAGUGUGCCUGUCAACUUUGCAGACUGC	0.281
CUGCCUAAAAAAAAAAAAAAAAAAAAAAAAAAAAAAAAAAAAUGCUAUAAAAUGGUGAAAGCUUCCUUCUAAACUGCCCCAAGUGUUGAAGUCUUCACUUUAUUUUGUUG	2.41
AGGCUGGUGGCAUGGCCCCCCUGCCCCGUGCUGAAUGAAUGUACAGAGCCAGACAAAGCUGUGAAUGGCCUAGGGGCUGAGUCCCACACCAGCUGUGAAUUCUCCUGCAG	1.82
GUGGUUCACAUUCCUAGUGAGAAGCAGAGAUCUGGAGGUGUGCAGUCCUCAGCCUCACAGCUUCCUUCCCUUUUCAGCAGGCUGAUGGAGACAUGCCACCAACAUAGACA	0.375
UGUUGCAGCUUUCCUUCCCUCUAGCUCAGGAGGCCUGGCCUGAGCCAGGUUGGAGCUUAAAUUGCUGUUGGCUCCUGCCUGGUGGAACAAGGGGGUCAUAGAAACCAGGG	0.342
UACAAAAAAGAAAAGACCAGUCCAUGAGGGAGGUUUUUAAGGGUUUGUGGAAAAUGAAAAUUAGGAUUUCAUGAUUUUUUUUUUUCAGUCCCCGUGAAGGAGAGCCCUUC	0.72
GUUUACCAUAAAGUUCCUUUCUCAGUAGAUUUUUCUUUCUUUUUUAAAAGAGGUGGUUGGCAAUUUAGGAUUCAUCUGGGUCUGUCCUGGUAAAGUCCUGCUGUGCAGAU	0.544
AGGAUGUGUGUCCUCCCUUGUGGUGGGAGGCAUGAAUUCUGACCCCUGUGACUGUGCAGCCUGACCCCGCAUAUGUUCCUGUGUGUUUGUGUGGUCUCCCCUUGUUUGGG	0.583
GUAGACAGCGUGAAUACGGACAGGAGGUGAUGCCAUAUUCACAGUGGGGGAUGGAGGGCCCCCACCCCUGCUUCACAGAAUAAUGGGAAGUGACUCUAGUCUUUGUAAGC	0.713
ACAAGUGAGGUGGAGAGUUGGCUGUGGAAGGUACAGCAAUUCCUCUGGAAUUAAAUGACCGACCAACACAGUACCAAGAGGAUGAAGAGAAGAUGUUUUGCGUUGCUACG	0.601

Study 2
Target: Sal-like protein 4, full length isoform A (SALL4, Homo sapiens, UniProt Q9UJQ4, residues 1-1053)
UniProt Q9UJQ4, sequence (whole entry, looked up): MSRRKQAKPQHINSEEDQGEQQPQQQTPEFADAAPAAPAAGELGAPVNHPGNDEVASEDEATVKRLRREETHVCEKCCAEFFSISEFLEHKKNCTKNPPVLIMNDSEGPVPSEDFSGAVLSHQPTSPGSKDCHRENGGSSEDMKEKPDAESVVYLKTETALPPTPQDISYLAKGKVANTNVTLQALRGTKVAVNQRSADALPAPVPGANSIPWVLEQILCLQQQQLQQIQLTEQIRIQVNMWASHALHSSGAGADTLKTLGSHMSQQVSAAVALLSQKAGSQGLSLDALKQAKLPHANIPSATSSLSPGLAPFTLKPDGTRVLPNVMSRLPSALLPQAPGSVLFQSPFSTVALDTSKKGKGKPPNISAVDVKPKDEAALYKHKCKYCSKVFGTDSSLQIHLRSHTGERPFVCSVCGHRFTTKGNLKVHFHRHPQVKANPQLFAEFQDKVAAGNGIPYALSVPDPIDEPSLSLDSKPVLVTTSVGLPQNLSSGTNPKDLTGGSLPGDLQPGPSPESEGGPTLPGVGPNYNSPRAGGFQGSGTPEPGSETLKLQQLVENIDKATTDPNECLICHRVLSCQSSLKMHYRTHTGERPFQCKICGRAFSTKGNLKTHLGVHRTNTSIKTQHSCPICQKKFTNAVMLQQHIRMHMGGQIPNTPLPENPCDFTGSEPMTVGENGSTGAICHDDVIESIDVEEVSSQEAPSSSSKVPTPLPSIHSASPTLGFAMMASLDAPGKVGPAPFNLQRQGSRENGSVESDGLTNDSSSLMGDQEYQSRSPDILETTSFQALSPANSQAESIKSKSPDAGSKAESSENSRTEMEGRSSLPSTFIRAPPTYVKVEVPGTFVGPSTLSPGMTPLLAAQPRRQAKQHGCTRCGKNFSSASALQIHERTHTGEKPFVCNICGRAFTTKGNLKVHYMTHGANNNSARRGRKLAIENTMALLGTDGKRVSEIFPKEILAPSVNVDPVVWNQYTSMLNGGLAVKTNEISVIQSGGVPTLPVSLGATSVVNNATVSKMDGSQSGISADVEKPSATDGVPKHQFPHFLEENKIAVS
Technique: universal PBM
Form: double-stranded DNA, one strand shown
Medium: in vitro
Tested at: 600 nM
Setting: 8-mer, flanks averaged, mean of replicates
Direction: higher = stronger binding
Strand	E-score
AAAAAAGA	0.198
GTGACAAA	0.0445
GACGTCAA	-0.0563
ACCGCCGA	-0.253
GCACATAC	-0.0978
AACTTCCG	-0.0563
ACCGTTTC	-0.13
ATCCATGA	0.0349
AGAGCTCG	-0.118
AGACTACT	0.0835
CCTACCGC	-0.309
ATACTGGG	-0.05
CGATACAG	-0.0723
GGCCCCAC	-0.392

Study 3
Target: CCND1, cyclin fold, Cln2 fusion (human)
Technique: yeast growth competition, sequencing
Medium: yeast
Setting: weak parent motif
Reference: not given
Direction: higher = stronger binding
Starting sequence: CDC25A docking peptide (human); PPHRRRLLFACSP; partner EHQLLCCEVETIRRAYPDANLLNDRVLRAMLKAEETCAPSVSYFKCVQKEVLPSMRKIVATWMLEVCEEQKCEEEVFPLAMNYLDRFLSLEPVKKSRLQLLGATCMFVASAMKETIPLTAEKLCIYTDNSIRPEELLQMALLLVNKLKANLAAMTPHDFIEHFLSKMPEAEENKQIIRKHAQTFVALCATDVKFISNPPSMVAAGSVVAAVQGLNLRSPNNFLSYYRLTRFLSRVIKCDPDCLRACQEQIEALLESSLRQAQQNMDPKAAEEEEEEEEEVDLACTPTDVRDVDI
Variant	normalised enrichment score
L7T	0.333
P2S	-0.0312
R4I	0.71
S12R	0.421
R4L	0.827
R5K	0.462
R4W	0.367
R5Y	-0.193
L8W	0.522

Further values, each from its own experiment
Molecule	target	assay	test system	setting	how to read	measurement	result
PhoQ, residues 284 288 289 292 302 303 SQSLSM	PhoP, residues 12 14 15 18 19 NHFIF (Escherichia coli, UniProt P23836)	Sort-seq, refers to: YFP reporter	E. coli	PhoQ-PhoP variant library, together with: 10 µM Mg2+	reference: high Mg2+ state, higher = stronger signaling	fold induction	2.13

For quick reference, copied from above (study 1):
Strand	RBNS enrichment (R)
UACAAAAAAGAAAAGACCAGUCCAUGAGGGAGGUUUUUAAGGGUUUGUGGAAAAUGAAAAUUAGGAUUUCAUGAUUUUUUUUUUUCAGUCCCCGUGAAGGAGAGCCCUUC	0.72
GUUUACCAUAAAGUUCCUUUCUCAGUAGAUUUUUCUUUCUUUUUUAAAAGAGGUGGUUGGCAAUUUAGGAUUCAUCUGGGUCUGUCCUGGUAAAGUCCUGCUGUGCAGAU	0.544
AGGAUGUGUGUCCUCCCUUGUGGUGGGAGGCAUGAAUUCUGACCCCUGUGACUGUGCAGCCUGACCCCGCAUAUGUUCCUGUGUGUUUGUGUGGUCUCCCCUUGUUUGGG	0.583
GUAGACAGCGUGAAUACGGACAGGAGGUGAUGCCAUAUUCACAGUGGGGGAUGGAGGGCCCCCACCCCUGCUUCACAGAAUAAUGGGAAGUGACUCUAGUCUUUGUAAGC	0.713
